Literature values, collected from citations in different studies.
Protocols differ between the studies behind these lines. ± marks the error that the study gave.

Substance | test system | setting | how to read | endpoint | value
CO[C@H]1C[C@@H]2CC[C@@H](C)[C@@](O)(O2)C(=O)C(=O)N2CCCC[C@H]2C(=O)O[C@H]([C@H](C)C[C@@H]2CC[C@@H](OCCO)[C@H](OC)C2)CC(=O)[C@H](C)/C=C(\C)[C@@H](O)[C@@H](OC)C(=O)[C@H](C)C[C@H](C)/C=C/C=C/C=C/1C | human | 2 mg single dose, added: ketoconazole 200 mg twice daily | relative to: with over without ketoconazole | AUC ratio | 15 fold
O=C(O)C[C@H](O)C[C@H](O)/C=C/c1c(C2CC2)nc2ccccc2c1-c1ccc(F)cc1 | human | concentration not given | relative to: OATP*15 heterozygous over non-carriers | AUC ratio | 1.4 fold
CC[C@@H]1CN(C(=O)NCC(F)(F)F)C[C@@H]1c1cnc2cnc3[nH]ccc3n12 | human | dose not given, CYP3A induction, added: rifampin multiple doses | relative to: without rifampin | AUC decrease | 60%
C[C@@H](Oc1cc(-c2cnn(C3CCNCC3)c2)cnc1N)c1c(Cl)ccc(F)c1Cl | healthy human volunteers | single dose, added: ketoconazole co-administration | relative to: without ketoconazole | AUC increase | 220%
CO[C@H]1C[C@@H]2CC[C@@H](C)[C@@](O)(O2)C(=O)C(=O)N2CCCC[C@H]2C(=O)O[C@H]([C@H](C)C[C@@H]2CC[C@@H](OC(=O)C(C)(CO)CO)[C@H](OC)C2)CC(=O)[C@H](C)/C=C(\C)[C@@H](O)[C@@H](OC)C(=O)[C@H](C)C[C@H](C)/C=C/C=C/C=C/1C | human | intravenous, 25 mg weekly |  | AUC | 3810 ng·h/mL
Cc1nc(Nc2ncc(C(=O)Nc3c(C)cccc3Cl)s2)cc(N2CCN(CCO)CC2)n1 | humans | oral, 50 mg single dose, added: famotidine 40 mg evening, 10 h before | relative to: without famotidine | AUC reduction | ~60%
octreotide | human | oral, 20 mg capsule | relative to: fasting | AUC reduction by high-fat meal | ~90%
CS(=O)(=O)CCNCc1ccc(-c2ccc3ncnc(Nc4ccc(OCc5cccc(F)c5)c(Cl)c4)c3c2)o1 | human, moderate hepatic impairment | oral, 100 mg | relative to: healthy controls | AUC increase | ~56%
CC(=O)O[C@H]1C(=O)[C@@]2(C)[C@H]([C@H](OC(=O)c3ccccc3)[C@]3(O)C[C@H](OC(=O)[C@H](O)[C@@H](NC(=O)c4ccccc4)c4ccccc4)C(C)=C1C3(C)C)[C@]1(OC(C)=O)CO[C@@H]1C[C@@H]2O | human, Kaposi sarcoma, HIV | 100 mg/m², no protease inhibitors |  | AUC | 2.9 ± 0.7 µM·h
COc1cccc(CCc2ccccc2OCC(CN(C)C)OC(=O)CCC(=O)O)c1 (racemic) | human | oral, 400 mg single dose as hydrochloride, geometric mean |  | AUC | 2210 ng·h/mL
O=C(c1cc(Cc2n[nH]c(=O)c3ccccc23)ccc1F)N1CCN(C(=O)C2CC2)CC1 | human | oral, 400 mg twice daily, multiple dose, pooled trials |  | AUC at steady state | 55200 ng·h/mL

Some of these lines once more:
Substance | test system | setting | how to read | endpoint | value
octreotide | human | oral, 20 mg capsule | relative to: fasting | AUC reduction by high-fat meal | ~90%
CS(=O)(=O)CCNCc1ccc(-c2ccc3ncnc(Nc4ccc(OCc5cccc(F)c5)c(Cl)c4)c3c2)o1 | human, moderate hepatic impairment | oral, 100 mg | relative to: healthy controls | AUC increase | ~56%
